Measurements from different studies.
Protocols differ between the studies behind these lines. Several values in a cell are separate wells, animals, samples, runs or records. ± marks the error that the study gave.

Structure (SMILES)	cell line	assay	setting	scale	endpoint	result
O=C(Nc1nnc2c1c(-c1ccc(Cl)cc1)nc1sc(=Cc3ccco3)c(=O)n12)c1ccccc1 (mixture of isomers)	SR	SRB	10 µM, NCI60 single-dose screen	baseline: untreated	cell growth	18.2%
COc1cc([C@@H]2O[C@@H](c3cc(OC)c(O[C@@H]4O[C@H](CO)[C@@H](O)[C@H](O)[C@H]4O)c(OC)c3)[C@H](CO)[C@H]2CO)cc(OC)c1O	PCS-210-010 human pre-adipocytes	differentiation	5 to 20 µM, 48 h, early differentiation	–	triglyceride level	decreased
COc1cc(N2CCN(C(=O)C3CCCN3)CC2)ccc1Nc1ncc(Cl)c(Nc2ccccc2P(C)(C)=O)n1 (centres unmarked)	Ba/F3 EML4-ALK	flow cytometry	concentration not given, 3 h	–	late apoptotic cells	8.61% and 6.84% and 7.2%
Cc1c(Cl)cccc1Nc1ccccc1C(=O)[Se]CC(=O)Nc1cccc(C(F)(F)F)c1	NCI60 ovarian subpanel	cell growth	10 µM, 48 h, one-dose	–	mean growth percent	-76.4%
CCCCCCCCCCCCCCCC(=O)OCC(CSC[C@H](N)C(=O)N[C@@H](CO)C(=O)N[C@@H](CCCCN)C(=O)N[C@@H](CCCCN)C(=O)N[C@@H](CCCCN)C(=O)N[C@@H](CCCCN)C(=O)NCCCCCC(=O)N[C@@H](CCCCN)C(=O)N[C@@H](CC(C)C)C(=O)N[C@H](C(=O)N[C@@H](Cc1ccccc1)C(=O)N[C@@H](Cc1ccccc1)C(=O)N[C@@H](Cc1ccc2ccccc2c1)C(=O)O)C(C)C)OC(=O)CCCCCCCCCCCCCCC (some centres unmarked)	BV-2	RNA-seq, refers to: Clec10a	concentration not given	–	mRNA level	4.83 FPKM and 4.18 FPKM and 5.55 FPKM
Cc1ncsc1-c1ccc(C(C)NC(=O)C2CC(O)CN2C(=O)C(NC(=O)CCCCCCCCCCN2CCCC(Nc3ncc(Cl)c(Nc4ccccc4S(=O)(=O)C(C)C)n3)C2)C(C)(C)C)cc1 (centres unmarked)	22Rv1	RNA-seq, refers to: PEX11A mRNA	concentration not given	baseline: DMSO	log2 fold change	-1.32
Cc1nc(=S)[nH]c(C)c1/N=N/c1nnc(S)[nH]1	Vero	cell viability, MTT	5.0 µg/mL	–	inhibition	21.6 ± 0.272%
COC(=O)c1cc(NC2=NC(=O)C(=Cc3ccc(C)cc3)S2)ccc1OC(C)=O	MCF7	GC-MS, refers to: 3-Aminoisobutyric acid	1 µM	baseline: DMSO	metabolite level	0.36 fold change
Cc1ccc(-n2cc(CSc3nc4ccccc4n3Cc3cn(-c4ccc(C)cc4)nn3)nn2)cc1	Caco-2	MTT	125 ppm	–	viability	12.3%
NCCOc1cc(NC(=O)c2cc(Cl)cc(C(=O)Nc3cc(OCCN)c4ccccc4n3)n2)nc2ccccc12	U2OS	cell viability, CellTiter-Glo	72 h	baseline: IC50 U2OS over WI-38	selectivity ratio	2
CCNc1cc2c(cc1C)C1(c3cc(C)c(NCC)cc3O2)c2ccccc2C(=O)N1N=Cc1c[c-]c(-c2ccccn2)cc1.Cc1c(C)c(-c2ccc(-c3ccccc3)cc2)[c-](C)c1C.[Cl-].[Ir+3]	A549	annexin V/PI flow cytometry	2.0×IC50, 24 h	–	early apoptotic cells	5.48 ± 0.62%
CN(C)CCN1CCN(c2ccc3nc(-c4ccc5nc(-c6ccc(C(F)(F)F)cc6)[nH]c5c4)[nH]c3c2)CC1	UACC-62	SRB	10 µM, 48 h	–	growth percent	44.8%
CC(=O)NCCCN(C)CCCNc1cccc2c1C(=O)c1cccc(NCCCN(C)CCCNC(C)=O)c1C2=O	SAS	RNA-Seq, refers to: IL18R1 mRNA	1 µM, 24 h	baseline: untreated cells	log2 fold change	-3.12
C=CC(=O)N1[C@@H](c2ccc3c(c2)OCO3)c2[nH]c3ccccc3c2C[C@H]1C(=O)NC1CC1	rat DRG neurons	–	1.111 µM, 48 h, with: vincristine 40 nM	–	mean neuron degeneration	76.9%
Cn1ncc2cc(-c3cncc(Cl)c3N3CCC4(CCNC4=O)CC3)ccc21	LS174T	gene expression, microarray, refers to: DDIT4 mRNA	concentration not given, 4 h	baseline: untreated cells	log2 fold change	1.18
O=C(C[Se]C(=O)c1ccccc1Nc1cccc(C(F)(F)F)c1)Nc1cccc(C(F)(F)F)c1	NCI60 non-small-cell lung subpanel	cell growth	10 µM, 48 h, one-dose	–	mean growth percent	-94%
CC[C@H](CO)Nc1nc(NCc2ccc(-c3ccccn3)cc2)c2ncn(C(C)C)c2n1	MOLT-4	tandem mass tag proteomics, refers to: UIF	1 µM, 5 h	baseline: DMSO	log2 fold change	-1.9
O=C(CCCCCOc1ccc2ccccc2c1)N[C@@H](CO)C[C@@H](O)c1ccc(-c2ccccc2)cc1	HeLa	CERT activity, HPLC-MS/MS lipidomics, refers to: sphingomyelin 24	1 µM, 24 h, not cell-number normalised	–	sphingomyelin level	73300 pmol/sample and 68600 pmol/sample and 63600 pmol/sample

Structure (SMILES)	cell line	assay	setting	scale	endpoint	result
O=C(C[Se]C(=O)c1ccc2ccccc2n1)Nc1cccc(C(F)(F)F)c1	NCI60 non-small-cell lung subpanel	cell growth	10 µM, 48 h, one-dose	–	mean growth percent	-91.7%
CO[C@@H]1[C@@H](OC(N)=O)[C@@H](O)[C@H](Oc2ccc3c(O)c(NC(=O)c4ccc(O)c(CC=C(C)C)c4)c(=O)oc3c2C)OC1(C)C	HCT-116 BRCA2 wild-type	–	50 µM, replicate A	baseline: untreated	colony survival	88.4%
O=C(C[Se]C(=O)C12CC3CC(CC(C3)C1)C2)Nc1cccc(C(F)(F)F)c1	NCI60 ovarian subpanel	cell growth	10 µM, 48 h, one-dose	–	mean growth percent	-53.2%
C1=[N+]2CCCC[N+]3=Cc4ccc5[n]4[Au-]23[n]2c1ccc2-c1nc2ccccc2nc1-5.F[P-](F)(F)(F)(F)F	SF-539	NCI60 five-dose screen	–	–	TGI	5.37 -log M
CC(C)Cc1ccc(C(C)C(=O)[Se]CC(=O)Nc2cccc(C(F)(F)F)c2)cc1 (centres unmarked)	NCI60 ovarian subpanel	total growth inhibition, inhibitor	five-dose	–	mean TGI	4010 nM
CC(C)c1ccc(N(C)c2ccc3c(c2)OCC[C@H]3CNc2cnccc2C(=O)O)cc1	MKN-45	cell viability, CellTiter-Glo	7 days	–	IC50	13.5 nM
COc1cc(N2CCOCC2)ccc1Nc1ncc(Cl)c(Nc2ccccc2NS(C)(=O)=O)n1	PC-9 del19/T790M/C797S cells	annexin V/PI staining	1 µM, 24 h	–	apoptotic cells	22.8%
O=C(C[Se]C(=O)c1ccccc1Nc1ccccc1)Nc1cccc(C(F)(F)F)c1	NCI60 ovarian subpanel	cell growth, inhibitor	five-dose	–	GI50	1680 nM
COC(=O)c1cc(NC2=NC(=O)C(=Cc3ccc(N(C)C)cc3)S2)ccc1OC(C)=O	MCF7	GC-MS, refers to: diacetone alcohol	1 µM	baseline: DMSO	metabolite level	-0.31 fold change
CC(C)(C)c1cc(-c2ccc3cccnc3n2)nc(-c2ccc3cccnc3n2)c1.COc1ccncc1.[Cl-].[Cl-].[Ru+2].c1ccc2cc3nc4c5cccnc5c5ncccc5c4nc3cc2c1	SK-MEL-28	–	visible light, oxygen 18.5%	baseline: dark EC50 over light EC50	phototherapeutic index	174
Cc1nc(=S)[nH]c(C)c1/N=N/c1nnc(S)s1	Vero	cell viability, MTT	1.25 µg/mL	–	inhibition	14.4 ± 0.869%
CN1CCCNC(=O)c2cccc(c2)C(=O)NCCCN(C)CCCNc2cccc3c2C(=O)c2cccc(c2C3=O)NCCC1	SAS	RNA-Seq, refers to: ZNF462 mRNA	1 µM, 6 h	baseline: untreated cells	log2 fold change	-1.18
CCN(C(=O)c1cc(F)ccc1Oc1nncnc1N1CCC2(C1)CN([C@H](CCCN(C)CCOC)C(C)C)C2)C(C)C	SK-N-SH	cell growth	72 h	–	GI50	> 10000 nM
CNS(=O)(=O)Nc1nccc(Cc2c(C)c3ccc(Oc4ncccc4F)cc3oc2=O)c1F	SNU-1040	cell viability, CellTiter-Glo	7 days	–	IC50	> 1000 nM
Cc1ccc([N+](=O)[O-])cc1S(=O)(=O)N(C)/N=C/c1cnc2ccc(Br)cn12	HuT78	Th1 pathway, NanoString IPA	50 nM, 10 h	direction not given	activation z-score	-3.53
CCN(CC)CC(=O)Nc1cccc(-n2cc(-c3ccc4ccc(-c5cn(-c6cccc(NC(=O)CN(CC)CC)c6)nn5)cc4c3)nn2)c1	RCC4	PCR angiogenesis array, refers to: CXCL6	5 x IC50, 4 h, normoxia	baseline: untreated	fold regulation	-1.36
CC(=O)OC[C@H]1O[C@@H](n2cc(CSc3nc4ccccc4n3Cc3cn([C@@H]4O[C@H](COC(C)=O)[C@@H](OC(C)=O)C(OC(C)=O)[C@H]4OC(C)=O)nn3)nn2)[C@H](OC(C)=O)C(OC(C)=O)[C@@H]1OC(C)=O (stereo in doubt)	HEK293	MTT	3.91 ppm	–	cytotoxicity	0.232%

Excerpt of the above:
Structure (SMILES)	cell line	assay	setting	scale	endpoint	result
CC(C)Cc1ccc(C(C)C(=O)[Se]CC(=O)Nc2cccc(C(F)(F)F)c2)cc1 (centres unmarked)	NCI60 ovarian subpanel	total growth inhibition, inhibitor	five-dose	–	mean TGI	4010 nM
CCN(CC)CC(=O)Nc1cccc(-n2cc(-c3ccc4ccc(-c5cn(-c6cccc(NC(=O)CN(CC)CC)c6)nn5)cc4c3)nn2)c1	RCC4	PCR angiogenesis array, refers to: CXCL6	5 x IC50, 4 h, normoxia	baseline: untreated	fold regulation	-1.36
